Experimental data of several laboratories.
Lines come from different studies, so protocols differ. “And” joins repeats or separate records; there may be more than shown. ± gives the spread as reported.

SMILES	method	species	matrix	route	dose	time	tissue uptake
Cc1cc(C)n(CCN(CCN)CCCCCCNC(=O)[C@@H](N)Cc2c[nH]cn2)n1.[99Tc+].[C-]#[O+].[C-]#[O+].[C-]#[O+]		BALB/c nude mice, MCF7 xenograft	brain	intravenous		4 h	0.04 ± 0.01 %IA/g
CC(C)C[C@H](NC(=O)[C@@H](CCCCNC(=O)[C@@H](Cc1ccccc1)NC(=O)CCCCCCCNC(=O)CN1CCN(CC(=O)O)CCN(CC(=O)O)CCN(CC(=O)O)CC1)NC(=O)[C@H](Cc1ccc(O)cc1)NC(=O)[C@H](CO)NC(=O)[C@H](Cc1c[nH]c2ccccc12)NC(=O)[C@H](Cc1c[nH]cn1)NC(=O)[C@@H]1CCC(=O)N1)C(=O)N[C@@H](CCCNC(=N)N)C(=O)N1CCC[C@H]1C(=O)NCC(N)=O [indium-111 labelled]	biodistribution	male athymic nude mice, DU-145 prostate cancer xenograft	stomach	intravenous	0.037 MBq	0.5 h post-injection	1.11 ± 0.66 %ID/g
O=C(NCC1OC2CCC=CCCC2O1)c1ccc([18F])nc1 (centres unmarked)		healthy female BALB/c nude mice	blood	intravenous	7.4 MBq per mouse	2 min	5.2 ± 0.5 %ID/g
N#C[C@@H]1CCCN1C(=O)CNC(=O)c1ccnc2ccc(OCCCN3CCN(C(=O)CCc4ccc(O)c(CN5CCN6CC(=O)[O][Al-]([18F])([O]C(=O)C5)[O]c5ccc(CCC(=O)N7CCN(CCCOc8ccc9nccc(C(=O)NCC(=O)N%10CCC[C@H]%10C#N)c9c8)CC7)cc5C6)c4)CC3)cc12 (some centres unmarked)		BALB/c nude mice, U-87 MG xenograft	brain			2 h	0.11 ± 0.01 %ID/g
COc1ccc(Nc2nc(Nc3ccc(OCCOCC[18F])cc3)ncc2Br)cc1		ICR mice, S180 tumour-bearing	brain	intravenous	370 kBq	15 min	1.7 ± 0.13 %ID/g
O=C(NCC1OC2CCC=CCCC2O1)c1ccc(COCCOCCOCC[18F])cc1 (centres unmarked)		healthy female BALB/c nude mice	stomach	intravenous	7.4 MBq per mouse	60 min	2.3 ± 0.7 %ID/g
COc1ccc(Nc2nc(Nc3ccc(OCCOCCOCC[18F])cc3)ncc2Br)cc1		ICR mice, S180 tumour-bearing	bone	intravenous	370 kBq	120 min	3.5 ± 0.34 %ID/g
O=C(O)CCCOc1ccc([18F])cc1-c1cc(-c2ccccc2C(F)(F)F)n(-c2ccccc2)n1		mice	bladder and urine	intravenous		15 min	0.06 ± 0.01 %ID/g
CCCC[C@H](NC(=O)COCCOCCNC(=O)CN1CCN(CC(=O)O)CCN(CC(=O)O)CC1)C(=O)N[C@H]1CC(=O)NCCCC[C@@H](C(N)=O)NC(=O)[C@H](Cc2c[nH]c3ccccc23)NC(=O)[C@H](CCCNC(=N)N)NC(=O)[C@@H](Cc2ccccc2)NC(=O)[C@H](Cc2c[nH]cn2)NC1=O [fluorine-18 labelled]		C57 mice B16-F10 melanoma	kidneys	intravenous	0.37 MBq	0.5 h	7.55 ± 1.13 %ID/g
CCCC[C@H](NC(=O)CNC(=O)CNC(=O)[C@H](CCCCNC(=O)[C@H](CC(N)=O)NC(=O)C(C)c1ccc(CC(C)C)cc1)NC(=O)CN1CCN(CC(=O)O)CCN(CC(=O)O)CCN(CC(=O)O)CC1)C(=O)N[C@H]1CC(=O)NCCCC[C@@H](C(N)=O)NC(=O)[C@H](Cc2c[nH]c3ccccc23)NC(=O)[C@H](CCCNC(=N)N)NC(=O)[C@@H](Cc2ccccc2)NC(=O)[C@H](Cc2c[nH]cn2)NC1=O (some centres unmarked) [lutetium-177 labelled]		C57 mice, tumour-bearing	heart			2 h	0.7 ± 0.33 %ID/g
O=C([O-])CN1CCN(CC(=O)[O-])CCN(CC(=O)NC[C@H]2CC[C@H](C(=O)N[C@H](Cc3cnc4ccccc4c3)C(=O)NCCCC[C@H](NC(=O)N[C@@H](CCC(=O)O)C(=O)O)C(=O)O)CC2)CCN(CC(=O)[O-])CC1.[64Cu+2]	ex vivo gamma counting	22Rv1 tumour-bearing mice	stomach	intravenous	0.74 MBq	1 h post-injection	7.61 %ID/g
Cc1cc(C)n(CCN(CCN)CCCCCCNC(=O)[C@@H](N)Cc2c[nH]c3ccccc23)n1.[99Tc+].[C-]#[O+].[C-]#[O+].[C-]#[O+]		BALB/c nude mice, A549 xenograft	stomach	intravenous		4 h	0.39 ± 0.03 %IA/g
CCCC[C@H](NC(=O)CNC(=O)CNC(=O)[C@H](CCCCNC(=O)[C@H](CC(=O)O)NC(=O)C(C)c1ccc(CC(C)C)cc1)NC(=O)CN1CCN(CC(=O)O)CCN(CC(=O)O)CCN(CC(=O)O)CC1)C(=O)N[C@H]1CC(=O)NCCCC[C@@H](C(N)=O)NC(=O)[C@H](Cc2c[nH]c3ccccc23)NC(=O)[C@H](CCCNC(=N)N)NC(=O)[C@@H](Cc2ccccc2)NC(=O)[C@H](Cc2c[nH]cn2)NC1=O (some centres unmarked) [lutetium-177 labelled]		C57 mice, tumour-bearing	skin			2 h	1.46 ± 0.34 %ID/g
COc1ccc2c(c1)C(C)(C)C(/C=C/C1=C(Oc3ccc(C(=O)NCCCCOc4cc(CN(Cc5ccccn5)Cc5ccccn5)cc(CN(Cc5ccccn5)Cc5ccccn5)c4)cc3)C(=C/C=C3/N(CCCCS(=O)(=O)[O-])c4ccc(OC)cc4C3(C)C)CCC1)=[N+]2CCCCS(=O)(=O)[O-].O=[N+]([O-])[O-].O=[N+]([O-])[O-].[99Tc+].[C-]#[O+].[C-]#[O+].[C-]#[O+].[Zn+2]		healthy BALB/c mice	pancreas			12 h	0.78 %ID/g and 0.73 %ID/g and 0.72 %ID/g and 0.65 %ID/g

For quick reference, copied from above:
SMILES	method	species	matrix	route	dose	time	tissue uptake
Cc1cc(C)n(CCN(CCN)CCCCCCNC(=O)[C@@H](N)Cc2c[nH]c3ccccc23)n1.[99Tc+].[C-]#[O+].[C-]#[O+].[C-]#[O+]		BALB/c nude mice, A549 xenograft	stomach	intravenous		4 h	0.39 ± 0.03 %IA/g
CCCC[C@H](NC(=O)CNC(=O)CNC(=O)[C@H](CCCCNC(=O)[C@H](CC(=O)O)NC(=O)C(C)c1ccc(CC(C)C)cc1)NC(=O)CN1CCN(CC(=O)O)CCN(CC(=O)O)CCN(CC(=O)O)CC1)C(=O)N[C@H]1CC(=O)NCCCC[C@@H](C(N)=O)NC(=O)[C@H](Cc2c[nH]c3ccccc23)NC(=O)[C@H](CCCNC(=N)N)NC(=O)[C@@H](Cc2ccccc2)NC(=O)[C@H](Cc2c[nH]cn2)NC1=O (some centres unmarked) [lutetium-177 labelled]		C57 mice, tumour-bearing	skin			2 h	1.46 ± 0.34 %ID/g
